Results collected from several papers.
Lines come from different studies, so protocols differ. Several values in a cell are separate wells, animals, samples, runs or records. Numbers after ± are the reported error.

COCC1CN(C2CCN(c3cc(OC)c(Nc4ncc(Br)c(Nc5ccc6c(c5P(C)(C)=O)OCCO6)n4)cc3C)CC2)C1  partial response (RECIST 1.1; advanced EGFR-mutant NSCLC patients; 240 mg once daily): 0%
CCCCCCCCCCCCCCCC(=O)OCC(CSC[C@H](N)C(=O)N[C@@H](CO)C(=O)N[C@@H](CCCCN)C(=O)N[C@@H](CCCCN)C(=O)N[C@@H](CCCCN)C(=O)N[C@@H](CCCCN)C(=O)NCCCCCC(=O)N[C@@H](CCCCN)C(=O)N[C@@H](CC(C)C)C(=O)N[C@H](C(=O)N[C@@H](Cc1ccccc1)C(=O)N[C@@H](Cc1ccccc1)C(=O)N[C@@H](Cc1ccc2ccccc2c1)C(=O)O)C(C)C)OC(=O)CCCCCCCCCCCCCCC (stereo partly drawn)  cleaved caspase-3 level (APP/PS1 transgenic mouse, hippocampus; intrahippocampal, dose not given, unit not given; reference: injected over adjacent side): 0.985 and 1.28 and 2.28 and 0.00352
O=S(=O)(NCc1ccncc1)c1ccc(C2CCCCC2)cc1  tubulin β3 immunoreactivity (immunohistochemistry; CK-p25 mice male, hippocampal pyramidal layer; ip, 0.3 mg/kg daily, 2 wk; reference: vehicle): ~2.2 fold
COC1CN([C@H]2CC[C@H]([C@@]3(C)Oc4c(Cl)cc(C(=O)NCc5c(SC)cc(C)[nH]c5=O)c(C)c4O3)CC2)C1  log2 fold change (RNA-seq, refers to: MMP8 mouse homolog; mouse, HT-1376 xenograft, whole blood; dose not given; reference: vehicle): 1.38
CN1CCC[C@]1(C)/C=C/S(=O)(=O)NC(=O)Nc1c2c(cc3c1CCC3)CCC2  IL-18 inhibition (human, whole blood ex vivo; 25 mg single dose, 24 h, single ascending dose, with: LPS and ATP): 82.3%
COc1ccc(C(=O)CCc2cc(C(CCc3ccc(O)cc3OC)c3ccc(O)cc3)c(O)cc2OC)cc1 (racemic)  LTB4 isomers level (human blood; 1 µM, with: A23187): 337 ± 120 pg/mL
COCCOCCOCCNC(=O)Cc1cc(CC(=O)N[C@H]2C[C@H]3C(=O)Nc4cc(OCCOCCOCCOC)cc(n4)C(=O)N4CCC[C@H]4C(=O)Nc4cc(OCCOCCOCCOC)cc(n4)C(=O)N4CCC[C@H]4C(=O)Nc4cc(OCCOCCOCCOC)cc(n4)C(=O)N3C2)cc(CC(=O)N[C@H]2C[C@H]3C(=O)Nc4cc(OCCOCCOCCOC)cc(n4)C(=O)N4CCC[C@H]4C(=O)Nc4cc(OCCOCCOCCOC)cc(n4)C(=O)N4CCC[C@H]4C(=O)Nc4cc(OCCOCCOCCOC)cc(n4)C(=O)N3C2)c1  ΔH (anion binding, ITC; water/acetonitrile 95 vol% (98.2 mol%); 298 K, with: sodium sulfate): 0.406 ± 0.0478 kcal/mol
COc1cc(O)ccc1CCC(c1ccc(O)cc1)c1cc2c(c(C)c1O)OC(c1ccc(O)cc1)CC2 (mixture of isomers)  LTB4 isomers level (human blood; 1 µM, with: A23187): 258 ± 81 pg/mL
CC(=O)[O-].O.[Cu+2].[O-]c1ccc(Br)cc1C=NCCN1CCOCC1  ferric reducing power (FRAP; 120 µM): 33.2%

Excerpt of the above:
COC1CN([C@H]2CC[C@H]([C@@]3(C)Oc4c(Cl)cc(C(=O)NCc5c(SC)cc(C)[nH]c5=O)c(C)c4O3)CC2)C1  log2 fold change (RNA-seq, refers to: MMP8 mouse homolog; mouse, HT-1376 xenograft, whole blood; dose not given; reference: vehicle): 1.38
